Results of several laboratories.
Parts stem from different laboratories: compare values within a part only. Several values in a cell are separate wells, animals, samples, runs or records.

Block 1
Cell line: A-375
Tested at: 100 µM
Time: 36 h
With `C[C@@H](O[C@H]1OCCN(Cc2n[nH]c(=O)[nH]2)[C@H]1c1ccc(F)cc1)c1cc(C(F)(F)F)cc(C(F)(F)F)c1` the viability was 0.179%.
For `C[C@H](CCC(=O)NCCS(=O)(=O)O)[C@H]1CC[C@H]2[C@@H]3[C@@H](O)C[C@@H]4C[C@H](O)CC[C@]4(C)[C@H]3CC[C@]12C`, the viability was 113%.
With `CNC(=O)c1cc(Oc2ccc(NC(=O)Nc3ccc(Cl)c(C(F)(F)F)c3)cc2)ccn1` the viability was 11.1% and 15.7%.
With `O=c1cc(-c2ccc(O)cc2)oc2cc(O)cc(O)c12` the viability was 24.7%.
`CCCCCCCCOc1ccccc1C(=O)Nc1ccc(C(=O)OCC[N+](C)(CC)CC)cc1` gave a viability of 0.0769%.
With `C[N+](C)(C)CCO` the viability was 102%.
For `CC(C)(C)NCC(O)c1cc(O)cc(O)c1` (centres unmarked), the viability was 113%.
The viability of `O=C(COc1ccc(Cl)cc1)N1CCN(Cc2ccc3c(c2)OCO3)CC1` is reported as 87.4%.
The viability of `CN(C)C(=O)COC(=O)Cc1ccc(OC(=O)c2ccc(NC(=N)N)cc2)cc1` is reported as 104%.
`O=C(Nc1ccccc1)c1ccccc1O` has a viability of 20.4%.
`CN(C)CCc1c[nH]c2ccc(CS(=O)(=O)N3CCCC3)cc12` gave a viability of 104%.
With `CC(C)/N=c1\cc2n(-c3ccc(Cl)cc3)c3ccccc3nc-2cc1Nc1ccc(Cl)cc1` the viability was 8.94%.
The viability of `O=C(O)c1ccccc1OP(=O)(O)O` is reported as 113%.

Block 2
Target: Serine/threonine-protein kinase BRSK2 (BRSK2, Homo sapiens, UniProt Q8IWQ3)
Read-out: enzyme activity
Action: inhibitor
Tested at: 0.5 µM
Baseline: control
Construct (Q8IWQ3 1-736): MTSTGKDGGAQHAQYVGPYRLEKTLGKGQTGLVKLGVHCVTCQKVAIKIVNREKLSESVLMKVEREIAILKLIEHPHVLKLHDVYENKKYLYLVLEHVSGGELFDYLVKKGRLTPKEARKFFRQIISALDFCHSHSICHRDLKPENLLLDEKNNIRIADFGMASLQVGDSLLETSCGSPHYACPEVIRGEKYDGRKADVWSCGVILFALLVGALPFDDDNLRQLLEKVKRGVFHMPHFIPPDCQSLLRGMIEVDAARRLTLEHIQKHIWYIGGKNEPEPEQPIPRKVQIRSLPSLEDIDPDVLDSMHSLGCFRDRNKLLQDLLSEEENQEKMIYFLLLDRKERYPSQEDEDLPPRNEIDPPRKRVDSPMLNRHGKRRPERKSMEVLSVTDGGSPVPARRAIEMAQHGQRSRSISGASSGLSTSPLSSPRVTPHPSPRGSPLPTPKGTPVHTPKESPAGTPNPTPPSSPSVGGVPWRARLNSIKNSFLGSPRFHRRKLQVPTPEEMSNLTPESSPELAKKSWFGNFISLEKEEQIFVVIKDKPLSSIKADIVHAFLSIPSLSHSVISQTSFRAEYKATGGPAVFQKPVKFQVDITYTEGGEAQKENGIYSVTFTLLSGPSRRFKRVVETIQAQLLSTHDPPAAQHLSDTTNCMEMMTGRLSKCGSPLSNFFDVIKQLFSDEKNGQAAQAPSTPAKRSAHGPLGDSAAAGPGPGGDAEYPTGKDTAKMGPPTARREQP
The remaining activity of `Oc1ccc(Nc2nc(-c3ccc(Cl)cc3)cs2)cc1` is reported as 101%.
`CC[n+]1c(/C=C/N(C)c2ccccc2)n(-c2ccccc2)c2ccc(-c3nc4ccccc4s3)cc21` gave a remaining activity of 95.7%.
`CCCC(=O)Oc1ccc2[nH]c(C(=O)c3cc4ccccc4[nH]3)cc2c1` has a remaining activity of 98.8%.
The remaining activity of `O=C1NC(=O)C(c2c[nH]c3ccccc23)=C1c1c[nH]c2ccccc12` is reported as 86%.
The remaining activity of `CC(C)(C)n1nc(Cc2cccc3ccccc23)c2c(N)ncnc21` is reported as 92%.
For `Cc1ccc(NC2=CC(=O)c3sc(C)nc3C2=O)cc1`, the remaining activity was 93.1%.
With `N#CC(=C(N)Sc1ccc(N)cc1)c1ccccc1C(F)(F)F` the remaining activity was 102%.
`O=C1Cc2c([nH]c3ccc([N+](=O)[O-])cc23)-c2ccccc2N1` has a remaining activity of 34.5%.
`Cc1cncc2cccc(S(=O)(=O)N3CCCN(C(=O)CN)C[C@@H]3C)c12` gave a remaining activity of 85.4%.
For `Nc1ncnc2c1cnn2-c1ccccc1`, the remaining activity was 95.3%.
`Cc1cc(Nc2nc(-c3ccccc3)nc3ccccc23)n[nH]1` has a remaining activity of 61.4%.
The remaining activity of `NC(=O)c1ccc(N(C(N)=O)c2c(F)cccc2F)nc1-c1ccc(F)cc1F` is reported as 96.6%.
The remaining activity of `COc1cc(Nc2c(C#N)cnc3cc(OCCCN4CCN(C)CC4)c(OC)cc23)c(Cl)cc1Cl` is reported as 94.2%.
With `CC#CC(=O)Nc1cc2c(Nc3ccc(F)c(Cl)c3)ncnc2cn1` the remaining activity was 93.3%.
With `CCc1[nH]c(-c2ccc(OC)cc2)nc1-c1ccncc1` the remaining activity was 105%.
With `Nc1nccc(-c2c(-c3ccc(F)cc3)ncn2C2CCNCC2)n1` the remaining activity was 96.6%.
For `O=S(=O)(NCCNC/C=C/c1ccc(Br)cc1)c1cccc2cnccc12`, the remaining activity was 92.4%.
With `CSc1nc(-c2ccnc(N[C@@H](C)c3ccccc3)c2)c(-c2ccc(F)cc2)[nH]1` (racemic) the remaining activity was 94.8%.
`CC(=O)c1ccc(N2CCOCC2)cc1O` gave a remaining activity of 100%.
The remaining activity of `COc1ccc(S(=O)(=O)N(CCO)c2ccccc2CN(C)CC=Cc2ccc(Cl)cc2)cc1` is reported as 103%.

Block 3
SMILES: Cl.Cl.NC1(c2ccc(-c3nc4ccn5c(=O)[nH]nc5c4cc3-c3ccccc3)cc2)CCC1
Tested at: 1 µM
Baseline: DMSO
It gave 82.9% for viability (sample C colorectal tumour organoid; replicate 2).
The viability was 60.9% (sample B colorectal tumour organoid; replicate 2).
It gave 57.9% for viability (sample BA colorectal tumour organoid).
sample B colorectal tumour organoid; replicate 1 — viability: 67.5%.
It gave 98.7% for viability (sample C colorectal tumour organoid; replicate 1).
colorectal tumour organoids — viability: 66.3%.

Block 4
Method: logD(dd/w) and ALogP
Notes: JT method
`CC(C)C[C@@H]1NC(=O)[C@H](CC(C)C)NC(=O)[C@@H](CC(C)C)NC(=O)[C@@H](C(C)C)NC(=O)[C@H](C)NC(=O)[C@H](CC(C)C)NC(=O)[C@@H](CC(C)C)NC1=O` — result for “lipophilic permeability efficiency”: 3.1.
Under “lipophilic permeability efficiency”, `CC(C)C[C@@H]1NC(=O)[C@H](C)NC(=O)[C@@H](CC(C)C)NC(=O)[C@H](C)NC(=O)[C@H](CC(C)C)NC(=O)[C@H](CC(C)C)NC(=O)[C@H](C)NC1=O` is recorded as 2.33.
Under “lipophilic permeability efficiency”, `CC(C)C[C@@H]1NC(=O)[C@@H](C)NC(=O)[C@@H](CC(C)C)NC(=O)[C@@H](CC(C)C)NC(=O)[C@H](C)NC(=O)[C@H](CC(C)C)NC(=O)[C@@H](CC(C)C)NC1=O` is recorded as 2.5.
`CC(C)C[C@@H]1NC(=O)[C@H](C)NC(=O)[C@H](Cc2cscn2)NC(=O)[C@H](CCC(=O)N2CCCC2)NC(=O)[C@H](CC(C)C)NC(=O)[C@H](CC(C)C)NC(=O)[C@@H](C(C)C)NC1=O` — result for “lipophilic permeability efficiency”: 1.48.
`CC(C)C[C@@H]1NC(=O)[C@H](CC(C)C)NC(=O)[C@H](CC(C)C)NC(=O)[C@H](CC(C)C)NC(=O)[C@@H](Cc2cscn2)NC(=O)[C@@H](CC(C)C)NC(=O)[C@H](C)NC1=O` — result for “lipophilic permeability efficiency”: 2.55.
`CC(C)C[C@@H]1NC(=O)[C@H](CC(C)C)NC(=O)[C@H](CC(C)C)NC(=O)[C@H](Cc2cscn2)NC(=O)[C@@H](Cc2cscn2)NC(=O)[C@@H](CC(C)C)NC(=O)[C@H](C)NC1=O`: “lipophilic permeability efficiency” 2.79.
`CC(C)C[C@@H]1NC(=O)[C@H](CCC(=O)N2CCCC2)NC(=O)[C@H](CC(C)C)NC(=O)[C@@H](Cc2cscn2)NC(=O)[C@H](CC(C)C)NC(=O)[C@@H](CC(C)C)NC(=O)[C@H](CC(C)C)NC1=O` — result for “lipophilic permeability efficiency”: 1.89.
`CC(C)C[C@@H]1NC(=O)[C@H](CC(C)C)NC(=O)[C@@H](CC(C)C)NC(=O)[C@H](C)NC(=O)[C@@H](Cc2cscn2)NC(=O)[C@@H](CC(C)C)NC(=O)[C@H](C)NC1=O` — result for “lipophilic permeability efficiency”: 2.39.
`CC(C)C[C@@H]1NC(=O)[C@H](CC(C)C)NC(=O)[C@@H](C(C)C)NC(=O)[C@H](CC(C)C)NC(=O)[C@@H](Cc2cscn2)NC(=O)[C@H](CCC(=O)N2CCCC2)NC(=O)[C@H](C)NC1=O`: “lipophilic permeability efficiency” 1.36.
`CC(C)C[C@@H]1NC(=O)[C@H](CC(C)C)NC(=O)[C@H](CC(C)C)NC(=O)[C@H](C(C)C)NC(=O)[C@H](C)NC(=O)[C@H](CCC(=O)N2CCCC2)NC(=O)[C@H](C)NC1=O`: “lipophilic permeability efficiency” 1.95.
Under “lipophilic permeability efficiency”, `CC(C)C[C@@H]1NC(=O)[C@H](Cc2cscn2)NC(=O)[C@H](Cc2cscn2)NC(=O)[C@H](C)NC(=O)[C@@H](CCC(=O)N2CCCC2)NC(=O)[C@H](CC(C)C)NC(=O)[C@@H](CC(C)C)NC1=O` is recorded as 2.23.
Under “lipophilic permeability efficiency”, `CC(C)C[C@@H]1NC(=O)[C@H](CC(C)C)NC(=O)[C@@H](CC(C)C)NC(=O)[C@@H](C)NC(=O)[C@H](C(C)C)NC(=O)[C@H](Cc2cscn2)NC(=O)[C@H](C)NC1=O` is recorded as 2.27.
Under “lipophilic permeability efficiency”, `CC(C)C[C@@H]1NC(=O)[C@@H](C)NC(=O)[C@H](CCC(=O)N2CCCC2)NC(=O)[C@@H](C(C)C)NC(=O)[C@H](C(C)C)NC(=O)[C@H](CC(C)C)NC(=O)[C@@H](CC(C)C)NC1=O` is recorded as 2.55.
`CC(C)C[C@@H]1NC(=O)[C@H](CC(C)C)NC(=O)[C@@H](C(C)C)NC(=O)[C@@H](C)NC(=O)[C@H](C(C)C)NC(=O)[C@H](Cc2cscn2)NC(=O)[C@H](C)NC1=O` — result for “lipophilic permeability efficiency”: 1.64.

Excerpt of the above (block 2):
The remaining activity of `O=C1NC(=O)C(c2c[nH]c3ccccc23)=C1c1c[nH]c2ccccc12` is reported as 86%.
The remaining activity of `CC(C)(C)n1nc(Cc2cccc3ccccc23)c2c(N)ncnc21` is reported as 92%.
For `Cc1ccc(NC2=CC(=O)c3sc(C)nc3C2=O)cc1`, the remaining activity was 93.1%.
With `N#CC(=C(N)Sc1ccc(N)cc1)c1ccccc1C(F)(F)F` the remaining activity was 102%.
`O=C1Cc2c([nH]c3ccc([N+](=O)[O-])cc23)-c2ccccc2N1` has a remaining activity of 34.5%.
`Cc1cncc2cccc(S(=O)(=O)N3CCCN(C(=O)CN)C[C@@H]3C)c12` gave a remaining activity of 85.4%.
For `Nc1ncnc2c1cnn2-c1ccccc1`, the remaining activity was 95.3%.
`Cc1cc(Nc2nc(-c3ccccc3)nc3ccccc23)n[nH]1` has a remaining activity of 61.4%.
